Measurements gathered from unrelated publications.
Protocols differ between the studies behind these lines. Values joined by “and” are separate records of one study, mostly repeats; a detail may differ.
B1: arp4 42-355 (Streptococcus pyogenes, UniProt P13050); chain AEIKKPQADSAWNWPKEYNALLKENEELKVEREKYLSYADDKEKDPQYRALMGENQDLRKREGQYQDKIEELEKERKEKQERQEQLERQYQIEADKHYQEQQKKHQQEQQQLEAEKQKLAKDKQISDASRQGLSRDLEASRAAKKELEAEHQKLKEEKQISDASRQGLSRDLEASREAKKKVEADLAALTAEHQKLKEDKQISDASRQGLSRDLEASREAKKKVEADLAEANSKLQALEKLNKELEEGKKLSEKEKAELQARLEAEAKALKEQLAKQAEELAKLKGNQTPNAKVAPQANRSRSAMTQQKRTLPS
B2: bvgA full length, unphosphorylated (Bordetella pertussis, UniProt P0A4H2); sequence looked up; chain MYNKVLIIDDHPVLRFAVRVLMEKEGFEVIGETDNGIDGLKIAREKIPNLVVLDIGIPKLDGLEVIARLQSLGLPLRVLVLTGQPPSLFARRCLNSGAAGFVCKHENLHEVINAAKAVMAGYTYFPSTTLSEMRMGDNAKSDSTLISVLSNRELTVLQLLAQGMSNKDIADSMFLSNKTVSTYKTRLLQKLNATSLVELIDLAKRNNLA
B3: codY V58A (Clostridioides difficile, UniProt Q18BE1); sequence looked up; chain MASEVLQKTRKINKTLQTSGGSSVSFDLLAGALGDVLSSNVYVVSAKGKVLGLHLNDAQDSSVIEDEYTKQKKFSDEYTQNVLKIDETLENLNGEKILEIFPEEHGRLQKYTTVVPILGSGQRLGTLVLSRYSNSFNDDDLVIAEYSATVVGLEILRAIGEELEEEMRKKAVVQMAIGTLSYSELEAVEHIFAELDGKEGLLVASKIADRVGITRSVIVNALRKFESAGVIESRSLGMKGTHIRILNDKLTDELKKLKNNQ
B4: Tad2 1-89 (Bacillus phage SPO1, UniProt B6V311); chain MKTKMSFGEALEVLKQGMQVYRSGWNGKNMFLFLKSSDALASDFGFGFGEYINEPVFGNIIFIKTADNKIHAWVPSQTDVLAEDWDIVS
B5: aer2 A184C/R224C (Pseudomonas aeruginosa, UniProt Q9I6V6); chain MGLFNAHAVAQQRADRIATLLQSFADGQLDTAVGEAPAPGYERLYDSLRALQRQLREQRAELQQVESLEAGLAEMSRQHEAGWIDQTIPAERLEGRAARIAKGVNELVAAHIAVKMKVVSVVTAYGQGNFEPLMDRLPGKKAQITEAIDGVRERLRGAAEATSAQLATAAYNARIKSALDNVSCNVMIADNDLNIIYMNRTVSEMLGRAEADIRKQLPNFDAGCLMGANIDVFHKNPAHQRHLLANLTGVHKAELNLGGRRFSLDVVPVFNDANERLGSAVQWTDRTEEHRAEQEVSQLVQAAAAGDFSKRVEEAGKEGFFLRLAKDLNSLVDTADRGLRDVSRMLGALAQGDLTQRIEADYQGTFGQLKDFSNDTAQSLSRMLGQIREAADTINTAASEIASGNAELSARTEQQASSLEETASSMEELTSTVKLNAENARQANSLAANASEVATQGGTVVQKVVSTMSSINESARKIADIIGVIDGIAFQTNILALNAAVEAARAGEQGRGFAVVAGEVRTLAQRSAAAAKEIKTLISDSVDKVENGNTLVAQAGQTMSDIVVAIRRVTDIMSEIAAASAEQSTGIEEVNSAVSQMDDMTQQNAALVEEAAAAAEAMQEQAGLLNQSVAVFRLDTPPSVVQLASARPSAPRPSAPAPLARSGMARASKARKEDGWEEF
B6: panD E96A (Mycobacterium abscessus, UniProt B1MGV7); chain MMFRTMMKSKIHRATVTHADLHYVGSVTIDPDLMEAADLLEGEQVTIVDIDNGARLETYAITGTRGSGVIGINGAAAHLVHPGDLVIIIAYGVMTDAEARAFTPRVVFVDSDNKQVELGEHSDDPAYVPENFGLVSPRGLV
B7: Csm3 1-214 D32A (Enterococcus italicus, UniProt E6LHV5); chain MYSKIRIVGKIDVLTGLHIGGGGETSMIGAIASPVVRDPYSRLPIIPGSSIKGKMRSLLAKHIGLIPGQKMHNQDAPEILRLFGSSQKGAIQSSRLQISDAFFSKASQEEFDKKDLAYTETKFENTISRLTAVANPRQIERVTRGASFDFHIIYNVENINEVMADFENIKTAIHLLENDYLGGGGTRGNGRIRFVIDSIDTVVGDFDSSNLSIK
B8: mpr (Mycobacterium smegmatis, UniProt Q50442); chain MTTPQPYPGMPSQPAPQGVPYPPQQPAKKKRKWPAIVGGVIALMIVGSIFNDDKKDTTPAENTATVAQAPAAAPTKEVPETTATINTPVRDGKFEFVVRSVEPGLSEVGDNPFLNQKAQGQFVIVTLSVQNIGDRPQGFSPSNQKLFDTEGRSFETDTSAQIALDNNDIAVWDNINPGNTVDVSLVYDMPVDAVPASIELHDSMFSGGVTVNLTP
B9: panD E119A (Mycobacterium abscessus, UniProt B1MGV7); chain MMFRTMMKSKIHRATVTHADLHYVGSVTIDPDLMEAADLLEGEQVTIVDIDNGARLETYAITGTRGSGVIGINGAAAHLVHPGDLVIIIAYGVMTDEEARAFTPRVVFVDSDNKQVELGAHSDDPAYVPENFGLVSPRGLV
B10: pyrE (Burkholderia cenocepacia, UniProt B4E589); sequence looked up; chain MTGYDRQSISDTTAKILLEVQAVHFNAEKPFIFTSGWASPVYIDCRKLISYPRVRRALMEMAETTITRDIGFEQIDAVAGGETAGIPFAAWIADRMMVPMQYVRKKPKGFGRNAQIEGHLEEGSRVLLVEDLTTDSRSKINFVNALRTAGATVNHCFVLFHYNIFKESVSVLKDIDVDLHALATWWDVLRVAKASGYFETKTLDEVEKFLHAPAEWSAAHGGATAPKE
B11: ychJ (Salmonella enterica, UniProt A0A2X4TUW2); sequence looked up; chain MSQPCPCGSGDEYSLCCGRIVSGERVAPDPSHLMRSRYCAFVMKDADYLIKSWHPTCNAAAFRDDIIAGFANTKWLGLTIFEHNWSEAGNTGYVSFIARFSEQGKIGAIIERSRFIKENGQWYYIDGTRPQLGRNDPCPCGSGKKFKKCCGQ
B12: gpU (bacteriophage lambda, UniProt P03732); sequence looked up; chain MKHTELRAAVLDALEKHDTGATFFDGRPAVFDEADFPAVAVYLTGAEYTGEELDSDTWQAELHIEVFLPAQVPDSELDAWMESRIYPVMSDIPALSDLITSMVASGYDYRRDDDAGLWSSADLTYVITYEM
B13: PALB2 1-195 I195W (Homo sapiens, UniProt Q86YC2); chain MDEPPGKPLSCEEKEKLKEKLAFLKREYSKTLARLQRAQRAEKIKHSIKKTVEEQDCLSQQDLSPQLKHSEPKNKICVYDKLHIKTHLDEETGEKTSITLDVGPESFNPGDGPGGLPIQRTDDTQEHFPHRVSDPSGEQKQKLPSRRKKQQKRTFISQERDCVFGTDSLRLSGKRLKEQEEISSKNPARSPVTEW
B14: dnaN beta clamp 1-367 (Neisseria gonorrhoeae, UniProt A0ACH0F8P7); chain MLILQAERDSLLKPLQAVTGIVERRHTLPILSNVLIEGRGGQTKLLATDLEIQIDTAGPEGGAGDFRITTNAKKFQDILRALPAGALVSLDWDDNRLTLKAGKSRFALQTLPAADFPMMNVGEDISATFSLGQERFKTMLSQVQYSMAVQDIRYYLNGLLMQVEGSQLRLVATDGHRLAYAACAIDADLPRAEVILPRKTVLELFKLLNNPDDPIQIELLDKQVRFQCNGTTIVSKVIDGKFPDFNRVIPLDNDKIFVLSRAELLGALERVSILANEKFRGARLFLQPGLLSVVCSNNEQEEAREEIEIAYQGGELEVGFNIGYLMDVLRNIHSDDMQLAFGDANRSTLFTVPNNPNFKYIVMPMRI
B15: Rep68 C151S (adeno-associated virus 2, UniProt P03132); chain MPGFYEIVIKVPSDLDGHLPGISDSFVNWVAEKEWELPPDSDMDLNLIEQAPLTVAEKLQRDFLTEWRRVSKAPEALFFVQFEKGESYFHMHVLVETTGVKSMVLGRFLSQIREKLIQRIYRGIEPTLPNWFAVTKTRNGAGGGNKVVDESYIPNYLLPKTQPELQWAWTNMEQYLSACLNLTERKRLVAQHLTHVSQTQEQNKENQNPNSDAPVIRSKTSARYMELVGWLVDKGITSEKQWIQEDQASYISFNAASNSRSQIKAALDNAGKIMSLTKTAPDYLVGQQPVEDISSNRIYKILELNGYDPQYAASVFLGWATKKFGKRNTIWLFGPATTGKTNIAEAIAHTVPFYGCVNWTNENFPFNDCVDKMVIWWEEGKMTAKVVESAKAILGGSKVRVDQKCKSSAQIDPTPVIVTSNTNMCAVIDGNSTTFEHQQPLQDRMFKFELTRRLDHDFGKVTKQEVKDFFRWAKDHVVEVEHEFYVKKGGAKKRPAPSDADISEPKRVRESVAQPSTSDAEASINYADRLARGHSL
Chain of UniProt P33650 (whole entry, looked up): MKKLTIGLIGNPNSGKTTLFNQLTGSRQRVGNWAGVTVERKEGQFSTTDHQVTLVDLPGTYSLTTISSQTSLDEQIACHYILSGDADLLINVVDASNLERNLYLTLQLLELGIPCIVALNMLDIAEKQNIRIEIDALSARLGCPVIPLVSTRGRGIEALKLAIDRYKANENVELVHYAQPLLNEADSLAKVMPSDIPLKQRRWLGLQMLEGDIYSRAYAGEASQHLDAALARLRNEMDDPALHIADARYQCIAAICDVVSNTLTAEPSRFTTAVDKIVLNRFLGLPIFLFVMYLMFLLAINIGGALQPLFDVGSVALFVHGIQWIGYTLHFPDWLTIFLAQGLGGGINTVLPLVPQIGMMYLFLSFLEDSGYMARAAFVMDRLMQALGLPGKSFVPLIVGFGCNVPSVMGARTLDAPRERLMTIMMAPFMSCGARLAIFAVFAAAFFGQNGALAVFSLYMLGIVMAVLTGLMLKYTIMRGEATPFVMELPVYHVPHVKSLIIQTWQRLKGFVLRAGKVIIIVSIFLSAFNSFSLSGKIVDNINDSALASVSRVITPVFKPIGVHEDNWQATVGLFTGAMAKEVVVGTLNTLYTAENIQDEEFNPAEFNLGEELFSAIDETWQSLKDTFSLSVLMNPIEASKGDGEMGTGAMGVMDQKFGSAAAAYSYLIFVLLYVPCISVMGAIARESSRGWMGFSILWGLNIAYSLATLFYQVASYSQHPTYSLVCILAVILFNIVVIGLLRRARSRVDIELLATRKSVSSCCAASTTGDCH
Chain of UniProt Q12527 (whole entry, looked up): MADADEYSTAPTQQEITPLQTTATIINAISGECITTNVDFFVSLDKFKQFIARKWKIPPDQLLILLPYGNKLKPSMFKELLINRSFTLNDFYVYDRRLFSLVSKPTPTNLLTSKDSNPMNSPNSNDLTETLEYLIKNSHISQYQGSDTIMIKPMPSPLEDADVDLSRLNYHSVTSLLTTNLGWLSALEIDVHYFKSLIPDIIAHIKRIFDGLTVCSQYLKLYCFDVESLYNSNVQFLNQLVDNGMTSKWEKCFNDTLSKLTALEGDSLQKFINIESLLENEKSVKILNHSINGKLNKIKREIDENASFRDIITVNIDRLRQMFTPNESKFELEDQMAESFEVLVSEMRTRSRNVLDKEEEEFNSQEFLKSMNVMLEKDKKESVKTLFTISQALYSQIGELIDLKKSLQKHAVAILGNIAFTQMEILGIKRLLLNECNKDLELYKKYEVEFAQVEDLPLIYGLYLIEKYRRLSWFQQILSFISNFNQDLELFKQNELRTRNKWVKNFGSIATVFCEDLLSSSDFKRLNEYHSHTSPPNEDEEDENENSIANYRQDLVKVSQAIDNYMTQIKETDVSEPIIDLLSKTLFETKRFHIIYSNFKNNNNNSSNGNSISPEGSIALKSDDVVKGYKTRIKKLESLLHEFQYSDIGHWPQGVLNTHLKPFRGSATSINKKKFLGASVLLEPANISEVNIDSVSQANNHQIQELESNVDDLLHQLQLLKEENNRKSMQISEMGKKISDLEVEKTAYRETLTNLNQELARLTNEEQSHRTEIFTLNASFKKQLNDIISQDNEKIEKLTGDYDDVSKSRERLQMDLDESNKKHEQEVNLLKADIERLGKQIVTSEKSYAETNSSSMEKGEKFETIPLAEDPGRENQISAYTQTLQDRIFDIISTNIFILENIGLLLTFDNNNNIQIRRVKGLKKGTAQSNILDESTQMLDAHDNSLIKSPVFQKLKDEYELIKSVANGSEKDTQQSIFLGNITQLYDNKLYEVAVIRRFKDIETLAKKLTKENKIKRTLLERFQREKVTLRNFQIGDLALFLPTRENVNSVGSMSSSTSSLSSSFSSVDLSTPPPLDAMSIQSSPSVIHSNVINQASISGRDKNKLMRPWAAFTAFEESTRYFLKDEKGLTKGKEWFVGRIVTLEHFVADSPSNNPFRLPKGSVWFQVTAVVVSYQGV

Molecule | target or system | assay | system | setting | how to read | endpoint | value
B1 (arp4 42-355) | itself | cryo-EM | – | – | – | subunits per oligomer | 2
B2 | itself | cross-linking | – | – | – | subunits per oligomer | 2
B3 (codY V58A) | itself | SEC | – | – | – | subunits per oligomer | 2
B4 (Tad2 1-89) | itself | SEC-MALS | – | – | – | subunits per oligomer | 4
insulin human | – | refers to: KCNH7 mRNA | EcoHIV-infected mouse, brain | i.p., dose not given | baseline: PBS | fold change | 1.11
B5 (aer2 A184C/R224C) | itself | cross-linking | – | – | – | subunits per oligomer | 4 and 2 and 6
B6 (panD E96A) | itself | native gel | – | – | – | subunits per oligomer | 4
B7 (Csm3 1-214 D32A) | itself | cryo-EM | – | – | – | subunits per oligomer | 3 and 4
gpJ (bacteriophage lambda, UniProt P03749) | itself | cryo-EM | – | – | – | subunits per oligomer | 3
B8 (mpr) | itself | cross-linking | – | – | – | subunits per oligomer | 4
B9 (panD E119A) | itself | native gel | – | – | – | subunits per oligomer | 4
ATG11 (Saccharomyces cerevisiae, UniProt Q12527) | itself | cross-linking | – | 0.8 µM, with: BS3 32 µM | – | subunits per oligomer | 2
feoB (Escherichia coli, UniProt P33650) | itself | SEC | – | – | – | subunits per oligomer | 18
B10 (pyrE) | itself | crystal structure | – | – | – | subunits per oligomer | 2
B11 (ychJ) | itself | cross-linking | – | with: H2O2 | – | subunits per oligomer | 2
B12 (gpU) | itself | cryo-EM | – | – | – | subunits per oligomer | 6
B13 (PALB2 1-195 I195W) | itself | AUC | – | – | – | subunits per oligomer | 4
B14 (dnaN beta clamp 1-367) | itself | SEC-MALS | – | – | – | subunits per oligomer | 2
B15 (Rep68 C151S) | itself | averages, 2D class, cryo-EM | – | – | – | subunits per oligomer | 7
